Assay results from different studies.
“And” joins repeats or separate records; there may be more than shown. Values after ≈ are worked out from the molar mass of the structure shown.

| SMILES | tested on | assay | test system | setting | scale | endpoint | result |
| --- | --- | --- | --- | --- | --- | --- | --- |
| O=C(Nc1cccnn1)N1CCN([C@@H]2CCOc3cc(C(F)(F)F)ccc32)CC1 | PCP | Cerep BioPrint | – | 20 µM | – | inhibition | 6% |
| CN1C(=O)C(C2C3=C(CC(C)(C)CC3=O)Oc3c(O)cccc32)C(=O)N(C)C1=O (stereo not drawn) | 3T3-L1 preadipocytes | adipogenesis, Oil Red O staining | – | IC20, 14 days, single replicate | – | lipid content | 0.586 OD492 and 0.596 OD492 and 0.573 OD492 |
| C[C@H](NC(=O)[C@H](CCCNC(=N)N)NC(=O)[C@H](Cc1c[nH]c2ccccc12)NC(=O)[C@H](CCCNC(=N)N)NC(=O)[C@H](Cc1c[nH]c2ccccc12)NC(=O)[C@H](Cc1c[nH]c2ccccc12)NC(=O)[C@H](Cc1c[nH]c2ccccc12)NC(=O)[C@H](CCCNC(=N)N)NC(=O)[C@H](Cc1c[nH]c2ccccc12)NC(=O)[C@H](CCCNC(=N)N)NC(=O)CN)C(N)=O | Candida albicans | broth microdilution | CGMCC 2.209, RPMI 1640-MOPS | 48 h, 30 °C, with: CaCl2 2 mM | – | MIC | 32 µM (≈ 54.4 µg/mL) |
| COc1c(CCC[P+](c2ccccc2)(c2ccccc2)c2ccccc2)cc2c(c1OC)OCO2.[I-] | SK-MEL-5 | SRB | – | – | – | LC50 | -5.23 log M |
| CC[C@H](C)[C@@H]1NC(=O)[C@@H]2CCCN2C(=O)[C@H](CC(C)C)NC(=O)[C@H](CC(C)C)NC(=O)CNC(=O)[C@@H](NC(=O)[C@@H](NC(=O)[C@H](CC(=O)O)NC(=O)CNC(=O)[C@@H](NC(=O)[C@H](C)NC(=O)CNC(=O)[C@H](CCCCN)NC(=O)[C@H](CC(C)C)NC(=O)[C@H](CC(C)C)NC(=O)[C@H](CCCCN)NC(=O)CNC(=O)[C@@H](NC(=O)[C@@H](N)CC(C)C)C(C)C)C(C)C)C(C)C)CSSC[C@@H](C(=O)O)NC1=O | – | RNA-seq, refers to: Grap2 | mouse, traumatic brain injury model, frontal cortex and hippocampus | dose not given | relative to: TBI alone | log2 fold change | -1.59 |
| COC(=O)[C@H]1[C@@H](OC(=O)c2ccccc2)C[C@@H]2CC[C@H]1N2C | sodium channel | Block, tonic and use-dependent | GH3 | concentration not given | – | time to steady-state block | ≤ 2 min |
| O=C(NNc1ccc(Cl)c(Cl)c1)c1nnc(C23CC4CC(CC(C4)C2)C3)o1 | Fusarium graminearum | fungal growth, inhibitor | – | – | – | EC50 | > 25 µg/mL |
| c1ccc(C(NCCNC(c2ccccc2)c2ccccc2)c2ccccc2)cc1 | adrenergic alpha2 receptor, rat | binding | – | 10 µM, Eurofins selectivity panel | – | inhibition | -13% |
| Cn1cnc2c(F)c(Nc3ccc(Br)cc3Cl)c(C(=O)NOCCO)cc21 | murine hepatitis virus | viral replication, nanoluciferase reporter | DBT | 1 µM, 10 h | relative to: DMSO vehicle | inhibition | 11% |

For quick reference, copied from above:
| SMILES | tested on | assay | test system | setting | scale | endpoint | result |
| --- | --- | --- | --- | --- | --- | --- | --- |
| Cn1cnc2c(F)c(Nc3ccc(Br)cc3Cl)c(C(=O)NOCCO)cc21 | murine hepatitis virus | viral replication, nanoluciferase reporter | DBT | 1 µM, 10 h | relative to: DMSO vehicle | inhibition | 11% |
